Measured values from different studies.
Numbers after ± are the reported error.

SMILES	tested on	assay	test system	conditions	scale	endpoint	value
CCCCn1cc(C(=O)O)c(=O)c2cc(F)c3c(nnn3-c3ccccc3Cl)c21	SW480	cell growth or viability, SRB	–	–	–	IC50	688 µM
N=C(N)NCCC[C@@H]1NC(=O)[C@H](Cc2csc3ccccc23)NC(=O)[C@@H](Cc2ccccc2)NC(=O)[C@H](Cc2ccccc2)NC(=O)[C@H](CCC(=O)NCCOCCOCC(=O)N[C@@H](CCCCNC(=O)c2ccc3c(c2)C(=O)OC32c3ccc4cc(O)ccc4c3Oc3c2ccc2cc(O)ccc32)C(N)=O)NC(=O)[C@@H](CCCNC(=N)N)NC(=O)[C@H](CCCNC(=N)N)NC(=O)[C@@H](CCCNC(=N)N)NC1=O	HeLa	cell penetration, flow cytometry	–	5 µM, 2 h, 37 °C, 1% FBS	baseline: CPP12	cytosolic entry	85 ± 7%
O=C(O)CCC(NP(=O)(O)OCCC[C@@H](NC(=O)CCC(NC(=O)CCCCCNC(=O)c1ccc([18F])cc1)C(=O)O)C(=O)O)C(=O)O (some centres unmarked)	CWR22Rv1 tumour model	–	host not given, tumour	intravenous, 2 h, tumour-bearing	–	tracer uptake	1.65 %ID/g
CC(C)(C)C1CCc2c(sc3nc(SCCN4CCCC4)nc(N)c23)C1 (centres unmarked)	–	–	mouse liver microsomes	30 min	–	metabolized compound	53 ± 5%
O=C(O)CCC(NP(=O)(O)OCCC[C@@H](NC(=O)CCC(NC(=O)c1ccc([18F])cc1)C(=O)O)C(=O)O)C(=O)O (some centres unmarked)	CWR22Rv1 tumour model	–	host not given, lung	intravenous, 2 h, tumour-bearing	–	tracer uptake	0.43 %ID/g
CN[C@](C)(C[18F])C(=O)O	MDA-MB-468 tumour model	–	host not given, muscle	15 min, tumour-bearing	–	tracer uptake	1.6 %ID/g
CCCCCCCCCCCCCCCC(=O)NCCCCCCNC(=O)C(CCCCNC(=O)CCN1C(=O)CC(SC[C@H](NC(=O)[C@H](CCCNC(=N)N)NC(=O)CNC(=O)[C@H](CCCCN)NC(=O)[C@@H](NC(=O)[C@H](CC(C)C)NC(=O)[C@H](Cc2c[nH]c3ccccc23)NC(=O)[C@H](C)NC(=O)[C@@H](NC(=O)[C@H](Cc2ccccc2)NC(=O)[C@H](CCC(=O)O)NC(=O)[C@H](CCCCN)NC(=O)[C@H](C)NC(=O)[C@H](C)NC(=O)[C@H](CCC(N)=O)NC(=O)CNC(=O)[C@H](CCC(=O)O)NC(=O)[C@H](CC(C)C)NC(=O)[C@H](Cc2ccc(O)cc2)NC(=O)[C@H](CO)NC(=O)[C@H](CO)NC(=O)[C@@H](NC(=O)[C@H](CC(=O)O)NC(=O)[C@H](CO)NC(=O)[C@@H](NC(=O)[C@H](Cc2ccccc2)NC(=O)[C@@H](NC(=O)CNC(=O)[C@H](CCC(=O)O)NC(=O)CNC(=O)[C@@H](N)Cc2c[nH]cn2)[C@@H](C)O)[C@@H](C)O)C(C)C)[C@@H](C)CC)C(C)C)C(N)=O)C1=O)NC(=O)CCN1C(=O)CC(SC[C@H](NC(=O)[C@H](CCCNC(=N)N)NC(=O)CNC(=O)[C@H](CCCCN)NC(=O)[C@@H](NC(=O)[C@H](CC(C)C)NC(=O)[C@H](Cc2c[nH]c3ccccc23)NC(=O)[C@H](C)NC(=O)[C@@H](NC(=O)[C@H](Cc2ccccc2)NC(=O)[C@H](CCC(=O)O)NC(=O)[C@H](CCCCN)NC(=O)[C@H](C)NC(=O)[C@H](C)NC(=O)[C@H](CCC(N)=O)NC(=O)CNC(=O)[C@H](CCC(=O)O)NC(=O)[C@H](CC(C)C)NC(=O)[C@H](Cc2ccc(O)cc2)NC(=O)[C@H](CO)NC(=O)[C@H](CO)NC(=O)[C@@H](NC(=O)[C@H](CC(=O)O)NC(=O)[C@H](CO)NC(=O)[C@@H](NC(=O)[C@H](Cc2ccccc2)NC(=O)[C@@H](NC(=O)CNC(=O)[C@H](CCC(=O)O)NC(=O)CNC(=O)[C@@H](N)Cc2c[nH]cn2)[C@@H](C)O)[C@@H](C)O)C(C)C)[C@@H](C)CC)C(C)C)C(N)=O)C1=O (some centres unmarked)	–	refers to: ALT, AST, BUN, creatinine	db/db mouse, serum	subcutaneous, 500 nmol/kg twice daily, 7 days	baseline: control	liver and kidney toxicity markers	no effect
O=C1CC(=O)N(c2ccccc2)c2cc(Cl)ccc2N1	–	–	C57BL/6 mice, whole blood	oral, 10 mg/kg	–	Cmax	6.6 µM
CCCCCC(=O)NCC(=O)N[C@@H](CC(C)C)C(=O)N[C@@H](CC(C)C)C(=O)N[C@@H](CCCCN)C(=O)N[C@@H](CCCNC(=N)N)C(=O)N[C@H](C(=O)N[C@@H](CCCCN)C(=O)N[C@H](C(=O)N[C@@H](CC(C)C)C(=O)N[C@@H](CC(C)C)C(=O)NCCCC[C@H](NC(=O)[C@H](CC(C)C)NC(=O)[C@H](CC(C)C)NC(=O)[C@@H](NC(=O)[C@H](CCCCN)NC(=O)[C@@H](NC(=O)[C@H](CCCNC(=N)N)NC(=O)[C@H](CCCCN)NC(=O)[C@H](CC(C)C)NC(=O)[C@H](CC(C)C)NC(=O)CNC(=O)CCCCC)[C@@H](C)CC)[C@@H](C)O)C(N)=O)[C@@H](C)O)[C@@H](C)CC	human erythrocytes	–	–	1 h, 37 °C, 10% haemolysis	–	minimum haemolytic concentration	6.08 µM
CC(C)[C@@H]1NC(=O)CNC(=O)[C@H](CC(N)=O)NC(=O)[C@H](CCCNC(=N)N)NC(=O)[C@H](Cc2ccc(O)cc2)NC(=O)[C@H](C(C)C)NC(=O)[C@@H](NC(=O)[C@@H](NC(=O)[C@H](CC(N)=O)NC(=O)[C@H](Cc2c[nH]c3ccccc23)NC(=O)[C@H](C)NC(=O)[C@H](Cc2ccccc2)NC(=O)CNC(=O)[C@H](CCCCN)NC(=O)[C@H](Cc2ccccc2)NC(=O)[C@H](Cc2ccccc2)NC(=O)[C@H](CCCCN)NC(=O)OCC2c3ccccc3-c3ccccc32)C(C)C)CSSC[C@@H](C(=O)N[C@@H](Cc2c[nH]cn2)C(=O)N[C@@H](CCCNC(=N)N)C(=O)N[C@@H](CCCNC(=N)N)C(=O)N[C@@H](C)C(=O)N[C@@H](CC(N)=O)C(N)=O)NC(=O)[C@H](C(C)C)NC(=O)[C@H](CCCNC(=N)N)NC1=O	HaCaT	CCK-8	–	up to 128 µM, 12 h	–	viability	> 90%
CN(C)CC1CCCCC1(O)c1cccc(O)c1 (centres unmarked)	Caco-2 TC7 monolayer	–	–	10 µM, 3 h, apical pH 6.8, basolateral pH 7.4	baseline: B-to-A over A-to-B	efflux ratio	1.8
C[C@@](O)(C(F)F)[C@H](NC(=O)c1ccc(C#CC#CC2CC2)cc1)C(=O)NO	–	–	dog, plasma	intravenous, 30 mg/kg	–	AUC(0-inf)	19400 ng·h/mL
COc1ccc(CNc2nc(N3CCC[C@H]3CO)ncc2C(=O)NN)cc1Cl	Salmonella typhimurium	–	TA102	125 µg/plate	–	revertant count	218 ± 14
CCCC(=O)NCC(=O)N[C@@H](CC(C)C)C(=O)N[C@@H](CC(C)C)C(=O)N[C@@H](CCCCN)C(=O)N[C@@H](CCCNC(=N)N)C(=O)N[C@H](C(=O)N[C@@H](CCCCN)C(=O)N[C@H](C(=O)N[C@@H](CC(C)C)C(=O)N[C@@H](CC(C)C)C(N)=O)[C@@H](C)O)[C@@H](C)CC	human erythrocytes	–	–	1 h, 37 °C, 10% haemolysis	–	minimum haemolytic concentration	> 256 µM
Cc1nc([C@H](NC(=O)c2ccc(-c3ccc(Cl)cc3)[nH]2)[C@H]2CCCCN2)sc1CO	U87/CD4/CCR5	cell growth or viability, XTT	–	–	–	CC50	~24 µM
O=C1C=CC(=O)C(c2cc(Cl)ccc2Cl)=C1	–	–	BALB/c mouse	sc, 10 mg/kg daily, 5 days/week, two weeks	–	tolerability	not toxic
CCCCCCCCCC(=O)NCC(=O)N[C@@H](CC(C)C)C(=O)N[C@@H](CC(C)C)C(=O)N[C@@H](CCCCN)C(=O)N[C@@H](CCCNC(=N)N)C(=O)N[C@H](C(=O)N[C@@H](CCCCN)C(=O)N[C@H](C(=O)N[C@@H](CC(C)C)C(=O)N[C@@H](CC(C)C)C(=O)NCCCC[C@H](NC(=O)[C@H](CC(C)C)NC(=O)[C@H](CC(C)C)NC(=O)[C@@H](NC(=O)[C@H](CCCCN)NC(=O)[C@@H](NC(=O)[C@H](CCCNC(=N)N)NC(=O)[C@H](CCCCN)NC(=O)[C@H](CC(C)C)NC(=O)[C@H](CC(C)C)NC(=O)CNC(=O)CCCCCCCCC)[C@@H](C)CC)[C@@H](C)O)C(=O)NCCCC[C@H](NC(=O)[C@H](CCCCNC(=O)[C@H](CC(C)C)NC(=O)[C@H](CC(C)C)NC(=O)[C@@H](NC(=O)[C@H](CCCCN)NC(=O)[C@@H](NC(=O)[C@H](CCCNC(=N)N)NC(=O)[C@H](CCCCN)NC(=O)[C@H](CC(C)C)NC(=O)[C@H](CC(C)C)NC(=O)CNC(=O)CCCCCCCCC)[C@@H](C)CC)[C@@H](C)O)NC(=O)[C@H](CC(C)C)NC(=O)[C@H](CC(C)C)NC(=O)[C@@H](NC(=O)[C@H](CCCCN)NC(=O)[C@@H](NC(=O)[C@H](CCCNC(=N)N)NC(=O)[C@H](CCCCN)NC(=O)[C@H](CC(C)C)NC(=O)[C@H](CC(C)C)NC(=O)CNC(=O)CCCCCCCCC)[C@@H](C)CC)[C@@H](C)O)C(N)=O)[C@@H](C)O)[C@@H](C)CC	human erythrocytes	–	–	1 h, 37 °C, 10% haemolysis	–	minimum haemolytic concentration	12.5 µM
CCC(=O)N(C)c1ccc(Cl)c(Cl)c1	Salmonella typhimurium	Ames test	TA100	0.50 mg/plate, with rat liver S9	–	revertant colonies	79 ± 3.1 revertants/plate
C[C@]12CC[C@H](OCC[18F])C[C@H]1CC[C@@H]1[C@@H]2CC[C@]2(C)[C@@H](c3ccc(=O)oc3)CC[C@]12O	SMMC-7721 tumour model	–	nude, tumour	intravenous, 7.4 MBq, 5 min, tumour-bearing	–	tracer uptake	2.96 %ID/g
COc1cc(C(=O)NCCOCCOCCOCCNC(=O)c2ccc([18F])nc2)ccc1NC(=O)C1NC(CC(C)(C)C)C(C#N)(c2ccc(Cl)cc2F)C1c1cccc(Cl)c1F (centres unmarked)	HepG2 tumour model	–	host not given, heart	2 h, tumour-bearing	–	tracer uptake	0.72 %ID/g
CCCCCCCC(=O)NCC(=O)N[C@@H](CC(C)C)C(=O)N[C@@H](CC(C)C)C(=O)N[C@@H](CCCCN)C(=O)N[C@@H](CCCNC(=N)N)C(=O)N[C@H](C(=O)N[C@@H](CCCCN)C(=O)N[C@H](C(=O)N[C@@H](CC(C)C)C(=O)N[C@@H](CC(C)C)C(=O)NCCCC[C@H](NC(=O)[C@H](CCCCNC(=O)[C@H](CC(C)C)NC(=O)[C@H](CC(C)C)NC(=O)[C@@H](NC(=O)[C@H](CCCCN)NC(=O)[C@@H](NC(=O)[C@H](CCCNC(=N)N)NC(=O)[C@H](CCCCN)NC(=O)[C@H](CC(C)C)NC(=O)[C@H](CC(C)C)NC(=O)CNC(=O)CCCCCCC)[C@@H](C)CC)[C@@H](C)O)NC(=O)[C@H](CC(C)C)NC(=O)[C@H](CC(C)C)NC(=O)[C@@H](NC(=O)[C@H](CCCCN)NC(=O)[C@@H](NC(=O)[C@H](CCCNC(=N)N)NC(=O)[C@H](CCCCN)NC(=O)[C@H](CC(C)C)NC(=O)[C@H](CC(C)C)NC(=O)CNC(=O)CCCCCCC)[C@@H](C)CC)[C@@H](C)O)C(N)=O)[C@@H](C)O)[C@@H](C)CC	human erythrocytes	–	–	1 h, 37 °C, 10% haemolysis	–	minimum haemolytic concentration	59.7 µM
COc1ccc(CNc2nc(N3CCC[C@H]3CO)ncc2C(=O)NNC(=O)c2cnc(N3CCC[C@H]3CO)nc2NCc2ccc(OC)c(Cl)c2)cc1Cl	Salmonella typhimurium	–	TA98	62.5 µg/plate, 48 h, with: rat liver S9	–	revertant count	36 ± 2
Cl.Cl.Cl.Cl.Cl.Cl.Cl.Cl.Cl.Cl.Cl.Cl.NC[C@@H]1O[C@H](O[C@H]2[C@@H](O)[C@H](O[C@@H]3[C@@H](O)[C@H](N)C[C@H](N)[C@H]3O[C@H]3O[C@H](CN)[C@@H](O)[C@H](O)[C@H]3N)O[C@@H]2Cn2cc(CCCCCCc3cn(C[C@H]4O[C@@H](O[C@@H]5[C@@H](O)[C@H](N)C[C@H](N)[C@H]5O[C@H]5O[C@H](CN)[C@@H](O)[C@H](O)[C@H]5N)[C@H](O)[C@@H]4O[C@H]4O[C@@H](CN)[C@@H](O)[C@H](O)[C@H]4N)nn3)nn2)[C@H](N)[C@@H](O)[C@@H]1O	MT-2	cytotoxicity	–	–	–	CT5	34 µM

Repeated from above:
SMILES	tested on	assay	test system	conditions	scale	endpoint	value
CC(C)[C@@H]1NC(=O)CNC(=O)[C@H](CC(N)=O)NC(=O)[C@H](CCCNC(=N)N)NC(=O)[C@H](Cc2ccc(O)cc2)NC(=O)[C@H](C(C)C)NC(=O)[C@@H](NC(=O)[C@@H](NC(=O)[C@H](CC(N)=O)NC(=O)[C@H](Cc2c[nH]c3ccccc23)NC(=O)[C@H](C)NC(=O)[C@H](Cc2ccccc2)NC(=O)CNC(=O)[C@H](CCCCN)NC(=O)[C@H](Cc2ccccc2)NC(=O)[C@H](Cc2ccccc2)NC(=O)[C@H](CCCCN)NC(=O)OCC2c3ccccc3-c3ccccc32)C(C)C)CSSC[C@@H](C(=O)N[C@@H](Cc2c[nH]cn2)C(=O)N[C@@H](CCCNC(=N)N)C(=O)N[C@@H](CCCNC(=N)N)C(=O)N[C@@H](C)C(=O)N[C@@H](CC(N)=O)C(N)=O)NC(=O)[C@H](C(C)C)NC(=O)[C@H](CCCNC(=N)N)NC1=O	HaCaT	CCK-8	–	up to 128 µM, 12 h	–	viability	> 90%
CN(C)CC1CCCCC1(O)c1cccc(O)c1 (centres unmarked)	Caco-2 TC7 monolayer	–	–	10 µM, 3 h, apical pH 6.8, basolateral pH 7.4	baseline: B-to-A over A-to-B	efflux ratio	1.8
C[C@@](O)(C(F)F)[C@H](NC(=O)c1ccc(C#CC#CC2CC2)cc1)C(=O)NO	–	–	dog, plasma	intravenous, 30 mg/kg	–	AUC(0-inf)	19400 ng·h/mL
